Assay results gathered from unrelated publications.
Lines come from different studies, so protocols differ. Values joined by “and” are separate records of one study, mostly repeats; a detail may differ. Numbers after ± are the reported error.
CASP7: Caspase-7 (CASP7, Homo sapiens, UniProt P55210)
Gria2: Glutamate receptor 2 (Gria2, Rattus norvegicus, UniProt P19491)
T1: G-quadruplex DNA, parallel G-quadruplex (Homo sapiens); GGGTGGGGAGGGTGGGG
T2: riboswitch RNA, fused to Pepper aptamer; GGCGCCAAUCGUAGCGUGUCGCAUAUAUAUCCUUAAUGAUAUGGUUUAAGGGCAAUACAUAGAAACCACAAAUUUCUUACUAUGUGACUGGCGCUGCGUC
T3: G-quadruplex DNA, G-quadruplex (Homo sapiens); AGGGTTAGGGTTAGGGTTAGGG

SMILES | target | test | test system | conditions | scale | measurement | result
Cc1ccc(-n2cc(CNC(=O)c3cncc(Br)c3)nn2)cc1 | human kinase panel | binding, KINOMEscan |  | 10000 nM, %Ctrl below 10 |  | number of kinases hit | 0
CC(=O)N[C@@H](CCC(C)C)C(=O)N[C@@H](CCC(=O)O)C(=O)N[C@@H](C)C(=O)N[C@@H](CC(=O)O)C(=O)COC(=O)c1c(C)cccc1C | CASP7 | enzyme activity, inhibitor |  |  |  | kinact/KI | 9600 M⁻¹ s⁻¹
CC1CCN(c2ccc(-c3n[nH]c(=O)c4ncccc34)cc2)CC1 | human kinase panel | binding, KINOMEscan |  | 10000 nM, %Ctrl below 1 |  | number of kinases hit | 0
O=C(CN1CCCCC1)Nc1ccc2[nH]c(-c3cccc(-c4nc5cc(NC(=O)CN6CCCCC6)ccc5[nH]4)n3)nc2c1 | T1, G-quadruplex DNA, parallel G-quadruplex (Homo sapiens) | BLI |  | parallel G4, read off a plot |  | Kd | 5.74 µM
CCOC(=O)C(CC)(CCCSCCOCCOCCOCCOCCNc1ccc([N+](=O)[O-])c2nonc12)NC(=O)c1ccc(C2CC2)c(Cc2ccc(F)cc2)n1 (centres unmarked) | CNR2 (Homo sapiens, UniProt P34972) | radioligand binding |  |  | relative to: CB1 over CB2 (human) | Ki ratio | 16
CC(=O)N[C@@H](CC(C)C)C(=O)N[C@@H](CCC(=O)O)C(=O)N[C@@H](CCC1CCCCC1)C(=O)N[C@@H](CC(=O)O)C(=O)COC(=O)c1c(C)cccc1C | CASP7 | enzyme activity, inhibitor |  |  |  | kinact/KI | 17700 M⁻¹ s⁻¹
N#CN1CC[C@H](C(=O)Nc2nc3c(s2)CN(C(=O)Cn2cc(COCCOCCOCCOCCNC(=O)CCCC[C@@H]4SC[C@@H]5NC(=O)N[C@@H]54)nn2)CC3)C1 | UCHL1 (Homo sapiens, UniProt P09936) | probe binding, affinity probe, neutravidin pull-down LC-MS/MS | HEK293T, cell lysate | 5 µM, 1 h, mean of three replicates, unit not given | higher = more pulled down | iBAQ abundance | 2.07e+09
O=C1c2sc(-c3ccc(N4CCC(F)C4)nc3F)nc2CCN1c1cccnc1 (centres unmarked) | NPY1R (Homo sapiens, UniProt P25929) | ligand displacement, radioligand |  | 1 µM |  | inhibition | -2%
CCCCCCCCCCCCC/C=C/C=O | CCT5 (Homo sapiens, UniProt P48643) | competitive isoTOP-ABPP | Ramos soluble proteome | 100 µM, with: iodoacetamide probe | relative to: DMSO over compound-treated, higher = stronger cysteine blockade | isoTOP-ABPP competition ratio | 1
O=C(O)Cc1cc2c(cc1C(=O)c1ccccc1Cl)OCO2 | Gria2 | glutamate-evoked current, whole-cell patch clamp | HEK-293T | concentration not given, weighted tau, 1 ms pulse, with: glutamate |  | deactivation time constant | 8.8 ± 0.7 ms
Nc1ncnc2[nH]cnc12 | T2, riboswitch RNA, fused to Pepper aptamer | fluorescence |  | 5 µM, negligible activation |  | binding | no binding
Cn1c(=O)n(C2CCC(=O)NC2=O)c2ccc(C3CCN(CC(=O)Nc4cccc(CS(=O)(=O)N5CC[C@H](Nc6cccc(-c7sc(C(=O)O)c(OCC(=O)O)c7Cl)c6)CC5(C)C)c4)CC3)cc21 (some centres unmarked) | Tyrosine-protein phosphatase non-receptor type 1 (Mus musculus, UniProt P35821) | degrader, Western blot | B16-F10 | 0.01 µM |  | remaining protein | 64.4% and 56.2%
O=C1CCC(N2C(=O)c3cccc4c(Cc5cnn(C6CCN(C(=O)CO)CC6)c5)ccc2c34)C(=O)N1 (centres unmarked) | Cereblon/Ikaros (Homo sapiens, UniProt Q13422+Q96SW2) | protein level, degrader, western blot | NCI-H929 | 100 pM, 4 h |  | remaining activity | 88.9%
CC(C=CC=C(C)C=CC1=C(C)CCCC1(C)C)=CC=O | Rhodopsin (RHO, Homo sapiens, UniProt P08100, T17M) | immunostaining, item: opsin | COS-7 transfected | 30.00 µM, unit not given | relative to: surface over total stained cells | plasma membrane localization | 0.9
NS(=O)(=O)c1ccc(CN2C(=O)c3ccc(N4CCOCC4)cc3C2=O)cc1 | CA2 (Bos taurus, UniProt P00921) | binding |  |  |  | emission maximum | 542 nm
CN(C)C/C=C/C(=O)Nc1ccc2nc(NCCCCCN(C)C)nc(NCCCCCCN(C)C)c2c1 | KMT5C (Homo sapiens, UniProt Q86Y97) | enzyme activity, inhibitor, radiometric |  | 50 µM |  | inhibition | 79%
COc1ncc2nc(C)n(Cc3ncc(S(N)(=O)=O)cc3F)c2c1-c1ccccc1 | ADORA2A (Homo sapiens, UniProt P29274) | agonist, cell-based |  | 10 µM |  | activation | -5.11%
Cc1cnc2nc1Nc1cccc(c1)COC/C=C/COCc1cc(ccc1OCCN1CCOCC1)N2 | ABL1 (Homo sapiens, UniProt P00519, E255K) | binding |  | 0.1 µM |  | remaining binding | 53%
CC(C)(C#N)c1ccc(-c2cnc(Nc3cnccn3)nc2Cl)cc1 | human kinase panel | binding, KINOMEscan |  | 10000 nM, %Ctrl below 10 |  | number of kinases hit | 1
CC(=O)N[C@@H](Cc1ccc(O)cc1)C(=O)N1CSC[C@H]1C(=O)N[C@@H](C)C(=O)N[C@@H](CC(=O)O)C(=O)COC(=O)c1c(C)cccc1C | CASP7 | enzyme activity, inhibitor |  |  |  | kinact/KI | 1700 M⁻¹ s⁻¹
C#CCOC(=O)[C@@]1(C)C=C(C(=O)OC(C)(C)C)C(=O)CC1 | MAPK1 (Homo sapiens, UniProt P28482) | enzyme activity, D-SENSOR |  | 4.938 µM, mean of replicates |  | normalized kinase activity | 1.05
COC(=O)Cc1cc2c(cc1C(=O)c1ccccc1Cl)OCO2 | Gria2 | glutamate-evoked current, whole-cell patch clamp | HEK-293T | concentration not given, weighted tau, 500 ms pulse, with: glutamate |  | desensitization time constant | 2 ± 0.1 ms
C[N+](C)(C)CCOC(N)=O | Chrnd/Chrna1/Chrne (Mus musculus, UniProt P02716+P04756+P20782, G173K/S470W) | ligand binding, agonist, single-channel kinetics |  | chain K | relative to: wild type over mutant | affinity ratio | 1.3
COc1ccc(C(OCCN2CCCC(C(=O)O)C2)(c2ccc(OC)cc2)c2ccc(OC)cc2)cc1 (centres unmarked) | SLC6A1 (Homo sapiens, UniProt P30531) | GABA transport, inhibitor, radioligand uptake | HEK293F transfected | 800 nM, 15 min pre, 45 min uptake, room temperature, with: [3H]-GABA 30 nM, GABA 25 µM | higher = more uptake | [3H]-GABA uptake | 1340 a.u. and 1320 a.u. and 943 a.u. and 4440 a.u. and 897 a.u. and 1020 a.u. and 4270 a.u. and 1050 a.u.
CCCCCCCCCCCCCCCC(=O)N[C@@H](CCCCN)C(=O)N[C@@H](CCCCN)C(=O)N[C@@H](CO)C(=O)N[C@@H](CCCNC(=N)N)C(=O)N[C@@H](C)C(=O)N[C@@H](CC(C)C)C(=O)N[C@@H](Cc1ccccc1)C(N)=O | F2RL3 (Homo sapiens, UniProt Q96RI0) | antagonist, ex vivo light transmittance aggregometry | human, platelet-rich plasma | 0.5 mg/kg, 2 h, with: AYPGKF 160 µM | relative to: baseline | inhibition of platelet aggregation | 35%
O=C(O)Cc1cc2c(cc1C(=O)c1cccc(Br)c1)OCO2 | Gria2 | whole-cell patch clamp | HEK-293T | concentration not given, with: glutamate |  | deactivation time constant | 6.7 ± 0.2 ms
CC(C)[C@@H]1NC(=O)[C@H](Cc2ccccc2)NC(=O)CSC[C@@H](C(N)=O)NC(=O)[C@H](CCC(=O)O)NC(=O)[C@H](CO)NC(=O)[C@H](Cc2c[nH]c3cccc(Cl)c23)NC(=O)[C@H](C2CCCCC2)NC(=O)[C@H](C(C)C)NC(=O)[C@H](Cc2ccc(O)cc2)NC(=O)[C@H](CC(=O)O)NC(=O)[C@H](Cc2c[nH]c3ccccc23)NC(=O)[C@H](Cc2ccc(N)nc2)NC(=O)[C@H](Cc2c[nH]c3ccc(Cl)cc23)NC(=O)[C@H](CCC(=O)O)NC1=O | Interleukin-1 receptor-like 2 (IL1RL2, Homo sapiens, UniProt Q9HB29) | reporter gene (SEAP), inhibitor, HEK-Blue IL-36R reporter | HEK-Blue IL-36R cells | 3.7 µM, 6 h, with: IL-36β 100 ng/mL |  | remaining activity | 92.5%
CN(C)c1ccc(C2=C/C(=C/C=C/c3sc4ccccc4[n+]3C)c3ccccc3O2)cc1 | T3, G-quadruplex DNA, G-quadruplex (Homo sapiens) | fluorescence turn-on |  |  |  | binding | binds
Cc1ccccc1-n1nc(C(=O)Nc2cccc(C(N)=O)c2)cc1-c1cccnc1 | Genome polyprotein, NS2B-NS3 protease (dengue virus type 2, UniProt P29990) | reporter gene | HeLa | 12.5 µM |  | inhibition | 57%

For quick reference, copied from above:
SMILES | target | test | test system | conditions | scale | measurement | result
CN(C)C/C=C/C(=O)Nc1ccc2nc(NCCCCCN(C)C)nc(NCCCCCCN(C)C)c2c1 | KMT5C (Homo sapiens, UniProt Q86Y97) | enzyme activity, inhibitor, radiometric |  | 50 µM |  | inhibition | 79%
CC(C=CC=C(C)C=CC1=C(C)CCCC1(C)C)=CC=O | Rhodopsin (RHO, Homo sapiens, UniProt P08100, T17M) | immunostaining, item: opsin | COS-7 transfected | 30.00 µM, unit not given | relative to: surface over total stained cells | plasma membrane localization | 0.9
